Measured values from different studies.
Parts stem from different laboratories: compare values within a part only.

Study 1
Target: Sal-like protein 4, full length isoform A (SALL4, Homo sapiens, UniProt Q9UJQ4, residues 1-1053)
Chain of UniProt Q9UJQ4 (whole entry, looked up): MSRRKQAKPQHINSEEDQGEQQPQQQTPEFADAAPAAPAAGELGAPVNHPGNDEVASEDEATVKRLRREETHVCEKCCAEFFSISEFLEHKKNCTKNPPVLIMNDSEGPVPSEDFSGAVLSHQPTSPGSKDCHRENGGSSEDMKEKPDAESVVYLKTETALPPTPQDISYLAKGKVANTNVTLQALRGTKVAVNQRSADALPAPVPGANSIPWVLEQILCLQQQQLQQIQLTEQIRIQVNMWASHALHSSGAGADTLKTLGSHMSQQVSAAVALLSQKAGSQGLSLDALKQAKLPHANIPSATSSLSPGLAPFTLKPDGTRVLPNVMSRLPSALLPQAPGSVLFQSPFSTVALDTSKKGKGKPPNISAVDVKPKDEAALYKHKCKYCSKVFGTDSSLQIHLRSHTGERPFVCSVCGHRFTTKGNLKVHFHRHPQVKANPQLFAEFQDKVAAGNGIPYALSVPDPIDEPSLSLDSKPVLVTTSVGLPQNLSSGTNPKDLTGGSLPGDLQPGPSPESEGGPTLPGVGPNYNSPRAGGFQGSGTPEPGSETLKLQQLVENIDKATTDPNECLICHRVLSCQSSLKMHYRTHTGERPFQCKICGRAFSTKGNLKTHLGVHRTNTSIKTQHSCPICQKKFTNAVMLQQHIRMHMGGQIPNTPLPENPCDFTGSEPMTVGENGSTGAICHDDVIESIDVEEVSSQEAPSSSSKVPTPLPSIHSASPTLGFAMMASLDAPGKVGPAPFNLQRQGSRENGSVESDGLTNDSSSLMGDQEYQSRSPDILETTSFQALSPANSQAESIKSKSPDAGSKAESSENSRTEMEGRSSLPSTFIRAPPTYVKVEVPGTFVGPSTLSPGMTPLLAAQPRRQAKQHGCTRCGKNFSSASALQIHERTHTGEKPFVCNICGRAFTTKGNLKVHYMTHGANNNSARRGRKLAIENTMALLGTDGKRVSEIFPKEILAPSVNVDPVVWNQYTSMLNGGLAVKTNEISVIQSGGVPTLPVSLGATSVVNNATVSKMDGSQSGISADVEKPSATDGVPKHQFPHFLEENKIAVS
Method: universal PBM
Form: double-stranded DNA, one strand shown
Sample: in vitro
Tested at: 600 nM
Setting: 8-mer, flanks averaged, mean of replicates
Direction: higher = stronger binding
Endpoint: E-score
Oligonucleotide = AACAACGG; result = -0.0763
Oligonucleotide = ACCAGACA; result = -0.0212
Oligonucleotide = AACTTTGC; result = -0.127
Oligonucleotide = GTACAGAA; result = 0.0114
Oligonucleotide = ACTTGGCG; result = -0.108
Oligonucleotide = ATTGTAAG; result = 0.254
Oligonucleotide = CGTCGGAA; result = -0.0213
Oligonucleotide = CGTACGAC; result = -0.0785
Oligonucleotide = AGACTCTC; result = -0.193
Oligonucleotide = CCCCTTCA; result = -0.0885
Oligonucleotide = CCTGGGGA; result = -0.352
Oligonucleotide = CGAAAGAG; result = -0.0299

Study 2
Target: RING finger protein unkempt homolog, zinc fingers 1-6, GST-SBP tag (UNK, Homo sapiens, UniProt Q9C0B0, residues 30-357)
Method: RNA Bind-n-Seq
Form: RNA
Sample: in vitro
Tested at: not given
Setting: RNA with constant flanks, human-mouse chimeric sites, ends assumed
Baseline: input RNA pool
Direction: higher = stronger binding
Endpoint: bound/input enrichment
Construct (chain): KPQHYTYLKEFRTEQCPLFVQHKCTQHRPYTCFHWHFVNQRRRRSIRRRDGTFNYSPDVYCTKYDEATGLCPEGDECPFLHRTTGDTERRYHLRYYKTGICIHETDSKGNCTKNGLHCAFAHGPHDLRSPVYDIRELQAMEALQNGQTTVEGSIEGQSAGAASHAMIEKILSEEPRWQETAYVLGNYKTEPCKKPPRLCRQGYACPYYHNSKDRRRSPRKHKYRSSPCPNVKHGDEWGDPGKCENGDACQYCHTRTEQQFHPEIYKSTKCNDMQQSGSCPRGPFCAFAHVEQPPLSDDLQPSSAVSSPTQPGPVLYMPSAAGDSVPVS
Oligonucleotide = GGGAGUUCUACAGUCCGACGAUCGCCACCAAUUCCAGCCAACAUGACCCUUGCUGCCUACAAAGAGAAGAUGAAGGAGCUCCCGCUGGUGUCCUUGUUCUGCUCUUGCUUCCUGGCCGAUCCCCUGAAUAAGUCGUCCUACAACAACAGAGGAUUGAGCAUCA; result = 0.293 ratio
Oligonucleotide = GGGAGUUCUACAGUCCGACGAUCACCAUUUUCGCGGUUCAGGCUUUGUGUGUAGUUCACUUACGGUAUUAAAUUAUUAUUGCCCUUAGUUUAUAAUAAGGAUAAUUGCAUUUAAAGAGGUUACUGAAUGUUGUUAUUGUUCUUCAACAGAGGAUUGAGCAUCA; result = 3.75 ratio
Oligonucleotide = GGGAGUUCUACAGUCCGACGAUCGGCCUGGGACCGUCCUGGGCUAGUACAAAUAGCGGCAUGGAGGCUCAAGAGGAAAGUUUUGUUAGUGGAGGCAGUGGUAGAGGCCGUCAUGUACGGUCCUUUACUCGAUAGAUGUGUUCUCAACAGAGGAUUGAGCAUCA; result = 0.606 ratio
Oligonucleotide = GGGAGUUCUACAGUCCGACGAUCAACAGAUUUCUCAAGCACAUUCCAAGCGAGAAUGCUGGGGUGAUCAUAAUUACCCACGUGCCUUCUGACUGAGCUUUAAUGCUGUUCCAUGUUACAUCUUUCCUUCACUCCAGAAUUGUUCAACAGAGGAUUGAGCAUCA; result = 0.132 ratio
Oligonucleotide = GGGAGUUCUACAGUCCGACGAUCUAAAUUAGGGCUGCCGUCCGUUCUCACUCCCUGGGCUGCGGAAAGCCAGAAGAUUUUAUCUAGUUUGUACAAGGCUGCUGGUGUUCCCUCUUUUUUUCCACGAGGGUGUUUUUGGCUGCACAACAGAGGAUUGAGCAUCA; result = 0.704 ratio
Oligonucleotide = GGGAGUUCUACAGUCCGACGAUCGCUCUUGGGAAUGUAAUCAGCGCCUUGGGGGACAAGAGCAAGAGAGCCACACAUGUCCCCUAUAGAGACUCUAAGCUGACAAGACUCUUGCAGGAUUCCCUUGGGGGUAACAGCCAAACCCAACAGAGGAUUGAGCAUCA; result = 0.122 ratio
Oligonucleotide = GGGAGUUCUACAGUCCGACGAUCGUCAACAGCUGCCUCAACCCCAUCCUCUACGCCUUCCUGGAUGAGAACUUCAAGGCCUGCUUCCGCAAGUUCUGCUGUGCAUCUGCCCUGCGCCGGGAGAUGCAGGUGUCUGACCGCGUGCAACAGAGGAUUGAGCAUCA; result = 0.268 ratio
Oligonucleotide = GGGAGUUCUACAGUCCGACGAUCUGACAAGCACGAGCAUCAGCCAUGCCUUUCCUUGACAUACAGAAAAAGCUGGGCAUCAACAUAGAUCGGCACUUUAUGUUCCUAAGCGCAGAACAGCCCUAUAAGAACGCCGCUCGGUGCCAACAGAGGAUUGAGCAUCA; result = 0.0818 ratio
Oligonucleotide = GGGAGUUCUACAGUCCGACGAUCGCUCUUGGGAAUGUAAUAAGUGCCUUGGGGGACAAGAGCAAGAGAGCCACCCAUGUCCCUUACAGAGACUCUAAGCUGACAAGACUCUUGCAGGAUUCCCUUGGGGGUAAUAGCCAAACCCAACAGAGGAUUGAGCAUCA; result = 0.176 ratio

Study 3
Target: Protein C-ets-1 (ETS1, Homo sapiens, UniProt P14921, residues 1-441, K379A, full length assumed)
Chain of UniProt P14921 (whole entry, unmodified, looked up): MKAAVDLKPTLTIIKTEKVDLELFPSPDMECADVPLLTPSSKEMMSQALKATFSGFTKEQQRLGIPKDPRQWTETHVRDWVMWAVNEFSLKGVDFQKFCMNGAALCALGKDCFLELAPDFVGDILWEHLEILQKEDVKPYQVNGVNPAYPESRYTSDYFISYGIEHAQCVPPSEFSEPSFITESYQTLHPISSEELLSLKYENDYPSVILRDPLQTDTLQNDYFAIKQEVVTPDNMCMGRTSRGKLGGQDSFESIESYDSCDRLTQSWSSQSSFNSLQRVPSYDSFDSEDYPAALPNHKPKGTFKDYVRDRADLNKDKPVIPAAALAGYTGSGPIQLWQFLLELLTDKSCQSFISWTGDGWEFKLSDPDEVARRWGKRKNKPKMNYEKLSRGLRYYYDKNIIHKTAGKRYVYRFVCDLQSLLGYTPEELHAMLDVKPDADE
Method: protein-binding microarray
Form: double-stranded DNA, one strand shown
Sample: in vitro
Tested at: not given
Setting: k-mer, scored over probes, only values ≥0.25
Direction: higher = stronger binding
Endpoint: E-score
Oligonucleotide = GTCGACGA; result = 0.282
Oligonucleotide = ATACAGAC; result = 0.26
Oligonucleotide = GTCCGACA; result = 0.281
Oligonucleotide = ATTCCGAC; result = 0.298
Oligonucleotide = ACATTTCC; result = 0.307
Oligonucleotide = GAACGGAA; result = 0.278
Oligonucleotide = CGGTCGTA; result = 0.297

Further values, each from its own experiment
Molecule = PhoQ, residues 284 288 289 292 302 303 SASVAL; target = PhoP, residues 12 14 15 18 19 HEGLL (Escherichia coli, UniProt P23836); test = Sort-seq, refers to: YFP reporter; system = E. coli; setting = PhoQ-PhoP variant library, added: 10 µM Mg2+; scale = baseline: high Mg2+ state, higher = stronger signaling; endpoint = fold induction; result = 1.41

A few entries again (study 1):
Oligonucleotide = AACTTTGC; result = -0.127
Oligonucleotide = AACAACGG; result = -0.0763
